# Assay results from different studies.
# Compare with care: the assays were run in different laboratories.
# Cell line: WI-38
# Observed: cell growth or viability
Structure (SMILES),test,setting,IC50
Cc1ccc(C(=O)/C=C/c2cn(CC(=O)Nc3nc(-c4ccccc4)cs3)nn2)cc1,MTT,72 h,3.48 µM
O=C(/C=C/c1ccc(O)cc1)OCCCC[P+](c1ccccc1)(c1ccccc1)c1ccccc1,SRB,24 h,270 µM
CSC(=NN=C(C)c1ccc(S(=O)(=O)N2CCC(C)CC2)cc1)N(C)C,,,86.5 µM
CN1CCC2(CC1)C/C(=N\NC(=O)Nc1ccc(Cl)cc1)c1ccccc1O2,,,100 µM
O=C(/C=C/c1ccccc1)OCCCC[P+](c1ccccc1)(c1ccccc1)c1ccccc1,SRB,24 h,126 µM
Cc1cc(N2CCN(C(=O)CN3CCN(C)CC3)CC2)n2ncnc2n1,,,> 100 µM
CCN1CCC2(CC1)C/C(=N\NC(=O)Nc1ccc(Cl)cc1)c1ccccc1O2,,,100 µM
CCCN1CCN(CC(=O)N2CCN(c3cc(C)nc4ncnn34)CC2)CC1,,,32.8 µM
N=C(N)Nc1nc2ccccc2[nH]1,MTT,24 h,> 500 µM
Cc1nn(-c2ccc(S(=O)(=O)N[C@@H](CO)CC(C)C)cc2)c2nn3nnnc3nc12,MTT,72 h,0.98 µM
CN1CCC2(CC1)C/C(=N\NC(=O)Nc1ccccc1)c1ccccc1O2,,,49.6 µM
O=C(CCl)Sc1nnc(-c2n[nH]c(=O)c3ccccc23)o1,MTT,48 h,72.4 µM
COc1cc(/C=C/C(=O)OCCCC[P+](c2ccccc2)(c2ccccc2)c2ccccc2)ccc1O,SRB,48 h,53.5 µM
CN1CCC2(CC1)C/C(=N\NC(=O)Nc1ccc([N+](=O)[O-])cc1)c1ccccc1O2,,,67.2 µM
O=C(/C=C/c1ccc(O)c(O)c1)OCCCC[P+](c1ccccc1)(c1ccccc1)c1ccccc1,SRB,24 h,124 µM
Cc1ccc(NC(=O)N/N=C2\CC3(CCN(C)CC3)Oc3ccccc32)cc1,,,66.3 µM
Cc1ccc(C(C)C)cc1.N=C(N)Nc1nc2ccccc2s1.[Cl-].[Cl][Ru+],MTT,24 h,136 µM
COc1ccc(NC(=O)N/N=C2\CC3(CCN(C)CC3)Oc3ccccc32)cc1,,,72.9 µM
CC1=NNC(c2cn(CC(=O)Nc3nc(-c4ccccc4)cs3)nn2)C1 (stereo not shown),MTT,72 h,0.384 µM

# For quick reference, copied from above:
Structure (SMILES),test,setting,IC50
O=C(/C=C/c1ccc(O)cc1)OCCCC[P+](c1ccccc1)(c1ccccc1)c1ccccc1,SRB,24 h,270 µM
Cc1cc(N2CCN(C(=O)CN3CCN(C)CC3)CC2)n2ncnc2n1,,,> 100 µM
